{"data": "Published values from different studies", "note": "A part holds a random share of what one study measured."}
{"data": "Study 1", "target": "RNA binding protein fox-1 homolog 2, RRM domain, GST-SBP tag (RBFOX2, Homo sapiens, UniProt O43251-10, residues 100-194)", "method": "RNA Bind-n-Seq", "molecule type": "RNA", "sample": "in vitro", "concentration": "365 nM", "notes": "natural RNA segment, single round, ends assumed", "reference": "no-protein control", "reading": "higher = stronger binding", "constant ends, left off below": "GGGAGUUCUACAGUCCGACGAUC … UGGAAUUCUCGGGUGCCAA", "Target sequence (chain)": "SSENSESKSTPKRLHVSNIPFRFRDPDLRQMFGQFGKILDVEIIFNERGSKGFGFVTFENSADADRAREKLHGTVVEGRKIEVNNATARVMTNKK"}
{"Sequence": "UACAAGGUCGCUUAGGCCCCUCUAGUCAGGGAAGAUUUGGGGGUGACAGGCUCCUUAGUCCUCGACACCAAGCUAGUAUGCGUUACCCACCUCCCAUCUGCUGCCCGGAA", "RBNS enrichment (R)": 0.253}
{"Sequence": "CUCUCUCUAGGCAGAGCGUUCCUGGCCAGAGCUCUACCUCUUUGCCUCCUGCUGACCCCUGACAGCGUCCCGUGGCAUUUCUUUCAUGUCUGCAUAUUGCAUAGCCUUGU", "RBNS enrichment (R)": 0.459}
{"Sequence": "UAAGCUUCUCUAGUGAGGCAUUCUGAGCAGUGGUGAUCACAUGCCAGAUCGCCCUGCCUAUCCACAAAGUAGAUGACCAAUGCACGCUCCUCAAACAUCUUUGGAGGAAC", "RBNS enrichment (R)": 6.41}
{"Sequence": "GCACUUCGUUCAUUAUCAGAAAACUGGAGGAAUUUAGAGAGAGGAAAUCUACGAUUUCUAAUUACCUGGAGUCAGCCCCCACUAGUCUGAGUACUUCGGCAAAUUCACUU", "RBNS enrichment (R)": 0.344}
{"Sequence": "AUAUAUUUUGCUGUGUAUAAAUUGAUAUUUUGCUAUGCAACUCCUGUAAUUGAAUUUGUAUAAUGCAGGCACUUUCUAAUUUAUUAGAGAUUAUGGAUCAGUUCUGACAU", "RBNS enrichment (R)": 1.01}
{"Sequence": "UUUGGAAUUUUGUCUUCUUUAGCUGAGACCAAAUUAAACCUUGGUGCAUAAAGUGAGCUUAAAACUUGCCACUGUUUAGUAAGUUAGCCCCCAUAGAAUGUGACCCUGUC", "RBNS enrichment (R)": 0.37}
{"Sequence": "CCAGCGCCUGCCAGCCCCAGAUGAGAAGAUUGAGCUUCCACAUCAGACCCCAUACCCGCCCUUGAGUCUGUUUGCAAUUCCUGGGAUCAGGCCCACUCCAGGAGGUGGGC", "RBNS enrichment (R)": 0.77}
{"Sequence": "GGAUUGACUCAAGAGACAGUAUUAGUAAAUUUAUUGUGUAUGGAUCAAAAGUGAAUAAUGUAUGAAUGAGAGCUGUAAGAAGGAUUUUUAUUUUGUUAUAAUUUAGUUAC", "RBNS enrichment (R)": 1.23}
{"Sequence": "GAAGUCCGACGGCUGGAAACCCAAGUGUUUGAUGGGCAGCAAGGCCCGAGCGAGCCCGUGAAUCUACCUGACAACCAAGCUGUGACAUUCAAAGAGACAAGGGACUCGUU", "RBNS enrichment (R)": 1.92}
{"Sequence": "GGCAUCCAGGUCAUCUUUUCUUUUCUCCAACCAUUAUUAAAAUAACUUGACACUUUGGGAGGCCAAGCUGGGCAGAUCACCUGAGGUCAGGAGUUUGAGACCAGCCUGGC", "RBNS enrichment (R)": 0.498}
{"Sequence": "AUCAUCUCUAUUGGCCUGGGGUGCCUGUGCUAUAAAUGAGUUUCUUCACAUGAAAAACACAGCCAGCCCAAGAUGACUUAUCUGGGUUUAGGAUUCAAUAGUAUUCACUA", "RBNS enrichment (R)": 0.224}
{"Sequence": "CAGCUGAGACUGCUGAGUAAUCUGAAGGCGAGAGCAAGGAUAUACCAGCGAGGUCAGCCCCUCUAGAAUGUUUGCUGGAUGGUGGAAGAUGUAAAAUAUUACCUUCUCCC", "RBNS enrichment (R)": 0.569}
{"data": "Study 2", "target": "Interferon regulatory factor 7, full length, phosphomimetic (IRF7, Homo sapiens, UniProt Q92985, residues 1-503, S101K/S471D/S472D/S475D/S476D/S477D/S483D/S484D/S487D)", "method": "protein-binding microarray", "molecule type": "double-stranded DNA, one strand shown", "sample": "in vitro", "concentration": "250 nM", "notes": "60-bp whole probe", "together with": "salmon DNA 0.4 mg/ml", "reference": "random background probes", "reading": "higher = stronger binding", "constant ends, left off below": "GCCTAGCAC … GTCTTGATTCGCTTGACGCTGCTG", "Residues (chain)": "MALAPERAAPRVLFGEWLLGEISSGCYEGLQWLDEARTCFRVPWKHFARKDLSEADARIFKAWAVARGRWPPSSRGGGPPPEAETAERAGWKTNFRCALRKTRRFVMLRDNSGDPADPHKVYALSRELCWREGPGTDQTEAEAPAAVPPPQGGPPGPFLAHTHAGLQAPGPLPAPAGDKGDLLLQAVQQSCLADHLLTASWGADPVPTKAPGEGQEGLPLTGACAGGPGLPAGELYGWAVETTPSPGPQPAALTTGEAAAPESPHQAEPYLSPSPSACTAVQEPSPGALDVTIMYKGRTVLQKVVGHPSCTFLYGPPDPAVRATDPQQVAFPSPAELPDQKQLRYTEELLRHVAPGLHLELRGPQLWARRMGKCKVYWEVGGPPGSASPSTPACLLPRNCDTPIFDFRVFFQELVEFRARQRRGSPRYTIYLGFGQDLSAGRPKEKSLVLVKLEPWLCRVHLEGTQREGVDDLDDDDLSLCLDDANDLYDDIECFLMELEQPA"}
{"Sequence": "TACGGACTGGGGTTTCGGGACGTGCTA", "log fluorescence": "1.25 z-score"}
{"Sequence": "GACGATATTGGGACTGGAGACGTGCTA", "log fluorescence": "-0.206 z-score"}
{"Sequence": "TCATTTCTGTGTCACAGACTGTGCTAG", "log fluorescence": "1.67 z-score"}
{"Sequence": "TCAGCTTTCCTTCATGCACTGTGCTAG", "log fluorescence": "0.489 z-score"}
{"Sequence": "CCCATTCTCAGCCCTGCGCATGTGCTA", "log fluorescence": "0.607 z-score"}
{"Sequence": "GACGATCTCAGTTTCGAGAGGTGCTAG", "log fluorescence": "1.87 z-score"}
{"Sequence": "TTAGGTAGCGACACTGGGTTAGTGCTA", "log fluorescence": "-0.957 z-score"}
{"Sequence": "GACGGACTGGGTTTCCGGACGTGCTAG", "log fluorescence": "0.371 z-score"}
{"Sequence": "TCAGTAATCGAAATCTTACTGTGCTAG", "log fluorescence": "0.304 z-score"}
{"Sequence": "GACGGTTTCGGACTAGGGACGTGCTAG", "log fluorescence": "3.98 z-score"}
{"Sequence": "TTAGGACTGGGCACTGGGTTAGTGCTA", "log fluorescence": "-0.852 z-score"}
{"Sequence": "TTAGGTATCGGACTGGCTTAGTGCTAG", "log fluorescence": "-0.193 z-score"}
{"Sequence": "ATTTGTCCCTATTTAAGAGAGTGCTAG", "log fluorescence": "4.19 z-score"}
{"Sequence": "CCTAATCTCAGCCTCCGTCAGTGCTAG", "log fluorescence": "0.221 z-score"}
{"Sequence": "TCATTTCCCACTTTCAGACTGTGCTAG", "log fluorescence": "5.14 z-score"}
{"Sequence": "GACGGACTGCTATTCCTGACGTGCTAG", "log fluorescence": "-0.218 z-score"}
{"Sequence": "TTAGATTTCAGTTCTGATTAGTGCTAG", "log fluorescence": "0.935 z-score"}
{"Sequence": "TTAGATATCGGGTATCGATTTGTGCTA", "log fluorescence": "2.85 z-score"}
{"data": "Study 3", "target": "Sal-like protein 4, full length isoform A (SALL4, Homo sapiens, UniProt Q9UJQ4, residues 1-1053)", "method": "universal PBM", "molecule type": "double-stranded DNA, one strand shown", "sample": "in vitro", "concentration": "600 nM", "notes": "8-mer, flanks averaged, mean of replicates", "reading": "higher = stronger binding", "UniProt Q9UJQ4, sequence (whole entry, looked up)": "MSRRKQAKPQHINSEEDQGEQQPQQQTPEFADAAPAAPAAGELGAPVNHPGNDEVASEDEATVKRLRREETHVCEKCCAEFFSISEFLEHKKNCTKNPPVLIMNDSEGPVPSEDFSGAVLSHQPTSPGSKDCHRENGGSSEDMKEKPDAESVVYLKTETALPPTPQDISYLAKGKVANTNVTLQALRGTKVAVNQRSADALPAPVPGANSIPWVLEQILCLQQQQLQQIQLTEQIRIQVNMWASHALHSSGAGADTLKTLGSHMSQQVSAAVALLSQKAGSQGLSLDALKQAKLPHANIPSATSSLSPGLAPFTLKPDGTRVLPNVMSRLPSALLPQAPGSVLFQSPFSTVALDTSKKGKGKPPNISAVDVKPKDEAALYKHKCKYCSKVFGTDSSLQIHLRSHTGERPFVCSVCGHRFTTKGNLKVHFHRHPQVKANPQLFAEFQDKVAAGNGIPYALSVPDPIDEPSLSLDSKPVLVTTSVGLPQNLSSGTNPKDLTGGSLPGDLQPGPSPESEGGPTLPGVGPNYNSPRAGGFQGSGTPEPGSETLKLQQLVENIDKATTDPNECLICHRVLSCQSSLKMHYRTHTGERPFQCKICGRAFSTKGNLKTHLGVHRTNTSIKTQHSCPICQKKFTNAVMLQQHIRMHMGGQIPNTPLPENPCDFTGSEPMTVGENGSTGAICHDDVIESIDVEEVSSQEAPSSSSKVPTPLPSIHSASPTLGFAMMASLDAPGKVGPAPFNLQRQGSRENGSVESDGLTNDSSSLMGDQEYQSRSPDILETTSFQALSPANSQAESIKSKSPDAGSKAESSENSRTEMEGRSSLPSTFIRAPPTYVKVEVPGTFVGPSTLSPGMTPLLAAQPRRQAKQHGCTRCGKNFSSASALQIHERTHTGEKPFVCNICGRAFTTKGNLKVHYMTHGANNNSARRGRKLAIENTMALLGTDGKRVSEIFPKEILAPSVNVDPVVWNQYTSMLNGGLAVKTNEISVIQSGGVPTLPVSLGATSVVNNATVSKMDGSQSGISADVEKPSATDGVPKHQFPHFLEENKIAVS"}
{"Sequence": "CCGCAAAA", "E-score": 0.0761}
{"Sequence": "AGGCATTA", "E-score": 0.0278}
{"Sequence": "AACCTAGC", "E-score": -0.127}
{"Sequence": "ATTAGTCA", "E-score": 0.203}
{"Sequence": "TAGGAATA", "E-score": 0.281}
{"Sequence": "GAGTTAAC", "E-score": 0.0253}
{"Sequence": "GTCGGCCA", "E-score": -0.242}
{"Sequence": "ACAGAGAT", "E-score": 0.19}
{"Sequence": "AGCAGGGG", "E-score": -0.176}
{"Sequence": "CAAATCAC", "E-score": 0.00084}
{"Sequence": "AATAGATG", "E-score": 0.178}
{"Sequence": "TCGATTCA", "E-score": 0.0428}
{"Sequence": "TCCACGAA", "E-score": 0.135}
{"Sequence": "ATTTGTAC", "E-score": 0.217}
{"Sequence": "AAAAAATT", "E-score": 0.369}
{"Sequence": "CAGCGGCG", "E-score": -0.227}
{"Sequence": "TCAGTGGA", "E-score": -0.142}
{"Sequence": "AACAGTGG", "E-score": -0.252}
{"Sequence": "GTACGGAA", "E-score": -0.0476}
{"Sequence": "AAGGACCC", "E-score": -0.319}
{"Sequence": "CTATGTAC", "E-score": 0.239}
{"Sequence": "CAGGGTGA", "E-score": -0.173}
{"Sequence": "AAGCCAAA", "E-score": -0.00156}
{"Sequence": "CATCATAC", "E-score": 0.332}
{"Sequence": "ACTAATCC", "E-score": 0.16}
{"data": "Study 4", "target": "Centromere-binding protein 1, full length, N-terminal tag (CBF1, Saccharomyces cerevisiae, UniProt P17106, residues 1-351)", "method": "protein-binding microarray", "molecule type": "double-stranded DNA, one strand shown", "sample": "in vitro", "concentration": "0.8 µM", "notes": "whole 60-bp probe, no competitor", "reading": "higher = stronger binding", "constant ends, left off below": "… GTCTTGATTCGCTTGACGCTGCTG", "UniProt P17106, sequence (whole entry, looked up)": "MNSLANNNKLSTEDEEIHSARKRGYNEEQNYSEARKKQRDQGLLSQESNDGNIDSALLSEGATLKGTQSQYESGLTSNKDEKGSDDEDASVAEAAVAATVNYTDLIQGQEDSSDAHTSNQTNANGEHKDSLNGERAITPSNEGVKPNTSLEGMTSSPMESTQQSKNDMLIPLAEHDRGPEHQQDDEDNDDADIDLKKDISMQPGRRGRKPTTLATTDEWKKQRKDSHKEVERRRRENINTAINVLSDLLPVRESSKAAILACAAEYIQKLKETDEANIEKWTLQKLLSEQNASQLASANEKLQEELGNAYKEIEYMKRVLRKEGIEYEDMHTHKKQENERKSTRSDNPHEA"}
{"Sequence": "GAAATATTTCAATTGCACGAGCAGATAATCCAATAG", "fluorescence intensity": "727 a.u."}
{"Sequence": "CTATTTCATTAAGAGCACGTTTGAGCTTATTAGTTC", "fluorescence intensity": "678 a.u."}
{"Sequence": "TGTACGAAGCTATCACACGTATATATAGTAGTTAGG", "fluorescence intensity": "557 a.u."}
{"Sequence": "CTAAAGAAAATAAAGAACGTGATAATGATGAATTTC", "fluorescence intensity": "1150 a.u."}
{"Sequence": "GAATGCCTTATACACCACCTATTCTGGCATCTGTAG", "fluorescence intensity": "519 a.u."}
{"Sequence": "CCTAACTACTATAGTCACATGACATAGCTTCGTACA", "fluorescence intensity": "8480 a.u."}
{"Sequence": "CTAAAATGCCAACGTGGTCAGACATCAATTCAATTC", "fluorescence intensity": "674 a.u."}
{"Sequence": "CTAGAATGCAAACGTGAGGTTGGCGCGCCCTCCTTC", "fluorescence intensity": "532 a.u."}
{"Sequence": "CTAACAATGAGAGGAAAGGTGACTTTTTAAGGGTTC", "fluorescence intensity": "543 a.u."}
{"Sequence": "CTAGATTCCTATGTCCTCGTGGAGAACTTTTAGTTC", "fluorescence intensity": "539 a.u."}
{"Sequence": "CCTAACTACTATAGCCATCACAGATAGCTTCGTACA", "fluorescence intensity": "513 a.u."}
{"Sequence": "GAAAACACATATTTTCACATGTCAGGAATTTTCTAG", "fluorescence intensity": "798 a.u."}
{"Sequence": "CTAATAATGGAAGTACACCTGCAGATGCATTTGTTC", "fluorescence intensity": "559 a.u."}
{"Sequence": "GAACAGAAAGCGTGTCACCAATCATGCTAACGTTAG", "fluorescence intensity": "563 a.u."}
{"Sequence": "CTACATTAAAAATACGTCATGATAGCAATGATATTC", "fluorescence intensity": "585 a.u."}
{"Sequence": "CTAGAACTTAAACAGCTGATCATTCAGAAACGTTTC", "fluorescence intensity": "878 a.u."}
